Measured values from different studies.
Protocols differ between the studies behind these lines. ± gives the spread as reported.
Sequence of UniProt Q12809 (whole entry, looked up): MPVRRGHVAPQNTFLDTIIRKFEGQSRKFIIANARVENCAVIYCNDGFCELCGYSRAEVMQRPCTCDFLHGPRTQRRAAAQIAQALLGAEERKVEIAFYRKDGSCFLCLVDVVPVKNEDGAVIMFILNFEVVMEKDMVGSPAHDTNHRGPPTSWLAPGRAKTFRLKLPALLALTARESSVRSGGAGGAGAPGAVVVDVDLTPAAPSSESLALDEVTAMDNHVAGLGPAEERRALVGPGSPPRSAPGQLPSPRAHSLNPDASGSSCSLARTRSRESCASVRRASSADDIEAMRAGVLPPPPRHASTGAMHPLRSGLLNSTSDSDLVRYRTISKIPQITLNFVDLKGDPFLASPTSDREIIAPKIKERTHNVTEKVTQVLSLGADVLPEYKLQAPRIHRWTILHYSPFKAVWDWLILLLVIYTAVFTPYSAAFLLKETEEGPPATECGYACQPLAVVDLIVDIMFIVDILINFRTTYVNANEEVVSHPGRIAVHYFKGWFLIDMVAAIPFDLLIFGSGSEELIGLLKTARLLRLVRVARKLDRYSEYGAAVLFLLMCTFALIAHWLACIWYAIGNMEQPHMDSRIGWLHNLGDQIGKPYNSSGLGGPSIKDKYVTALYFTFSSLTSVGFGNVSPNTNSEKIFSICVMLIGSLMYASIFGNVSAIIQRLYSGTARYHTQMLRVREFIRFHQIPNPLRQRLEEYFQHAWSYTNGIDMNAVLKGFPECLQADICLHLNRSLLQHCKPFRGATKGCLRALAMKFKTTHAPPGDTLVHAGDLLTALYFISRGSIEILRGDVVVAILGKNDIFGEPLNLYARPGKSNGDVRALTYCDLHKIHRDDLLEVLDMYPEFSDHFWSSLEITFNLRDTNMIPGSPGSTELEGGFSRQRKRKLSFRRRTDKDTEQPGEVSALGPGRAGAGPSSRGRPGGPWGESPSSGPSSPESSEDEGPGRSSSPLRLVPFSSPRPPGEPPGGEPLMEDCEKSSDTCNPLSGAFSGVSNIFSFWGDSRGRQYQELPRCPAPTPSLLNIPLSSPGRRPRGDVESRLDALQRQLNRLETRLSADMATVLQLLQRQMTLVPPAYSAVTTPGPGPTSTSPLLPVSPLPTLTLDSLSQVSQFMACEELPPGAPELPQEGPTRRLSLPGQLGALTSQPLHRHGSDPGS
Sequence of UniProt P08684 (whole entry, looked up): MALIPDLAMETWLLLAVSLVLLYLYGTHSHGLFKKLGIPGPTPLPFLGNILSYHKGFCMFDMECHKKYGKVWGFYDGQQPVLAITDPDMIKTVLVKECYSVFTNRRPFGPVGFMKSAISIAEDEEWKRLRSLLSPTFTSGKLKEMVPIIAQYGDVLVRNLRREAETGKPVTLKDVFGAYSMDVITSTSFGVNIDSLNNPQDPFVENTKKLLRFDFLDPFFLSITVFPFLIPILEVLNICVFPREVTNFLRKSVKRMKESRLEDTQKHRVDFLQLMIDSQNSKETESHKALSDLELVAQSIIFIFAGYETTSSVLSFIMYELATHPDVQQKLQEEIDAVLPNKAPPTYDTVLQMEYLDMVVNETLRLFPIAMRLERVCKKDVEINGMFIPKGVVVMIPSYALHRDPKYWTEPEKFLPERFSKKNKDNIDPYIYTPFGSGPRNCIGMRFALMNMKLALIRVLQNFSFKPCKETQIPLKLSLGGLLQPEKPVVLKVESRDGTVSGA

SMILES	target or system	test	system	setting	how to read	measurement	value
CC(C)C[C@H](NC(=O)[C@H](CC(=O)O)NC(=O)CNC(=O)[C@H](CCCNC(=N)N)NC(=O)[C@H](CC(C)C)NC(=O)[C@H](CC(N)=O)NC(=O)[C@@H]1CCCN1C(=O)[C@@H](NC(=O)[C@H](C)NC(=O)[C@H](CC(N)=O)NC(=O)CCOCCOCCOCCOCCOCCOCCOCCOCCOCCOCCOCCOCCOCCOCCOCCOCCOCCOCCOCCOCCOCCOCCOCCOCCOCCOCCOCCOCCNC(=O)CCOCCOCCOCCOCCOCCOCCOCCOCCOCCOCCOCCOCCOCCOCCOCCOCCOCCOCCOCCOCCOCCOCCOCCOCCOCCOCCOCCOCCNC(=O)c1ccc(F)cc1)C(C)C)C(=O)N[C@@H](CCC(N)=O)C(=O)N[C@H](C(=O)N[C@@H](CC(C)C)C(=O)N[C@@H](C)C(=O)N[C@@H](CCC(N)=O)C(=O)N[C@@H](CCCCN)C(=O)N[C@H](C(=O)N[C@@H](C)C(=O)N[C@@H](CCCNC(=N)N)C(=O)N[C@H](C(N)=O)[C@@H](C)O)C(C)C)C(C)C [fluorine-18 labelled]	–	–	male athymic nude mice, DX3puroβ6 xenograft, αvβ6-positive DX3puroβ6 tumour	intravenous, 4 h	–	tissue uptake	0.54 ± 0.08 %ID/g
CC[C@H](C)[C@H](NC(=O)[C@H](CC(C)C)NC(=O)[C@H](Cc1c[nH]c2ccccc12)NC(=O)[C@H](CCC(N)=O)NC(=O)[C@@H](NC(=O)[C@H](Cc1ccccc1)NC(=O)[C@H](C)NC(=O)[C@H](CCCCNC(=O)COCCOCCNC(=O)COCCOCCNC(=O)CC[C@H](NC(=O)CCCCCCCCCCCCCCCCCCC(=O)O)C(=O)O)NC(=O)[C@H](CCC(N)=O)NC(=O)[C@H](C)NC(=O)[C@@H](NC(=O)[C@H](CCCCN)NC(=O)[C@H](CC(=O)O)NC(=O)[C@H](CC(C)C)NC(=O)C(C)(C)NC(=O)[C@@H](NC(=O)[C@H](CO)NC(=O)[C@H](Cc1ccc(O)cc1)NC(=O)[C@H](CC(=O)O)NC(=O)[C@H](CO)NC(=O)[C@@H](NC(=O)[C@H](Cc1ccccc1)NC(=O)[C@@H](NC(=O)CNC(=O)[C@H](CCC(=O)O)NC(=O)C(C)(C)NC(=O)[C@@H](N)Cc1ccc(O)cc1)[C@@H](C)O)[C@@H](C)O)[C@@H](C)CC)[C@@H](C)CC)C(C)C)C(=O)N[C@@H](C)C(=O)NCC(=O)NCC(=O)N1CCC[C@H]1C(=O)N[C@@H](CO)C(=O)N[C@@H](CO)C(=O)NCC(=O)N[C@@H](C)C(=O)N1CCC[C@H]1C(=O)N1CCC[C@H]1C(=O)N1CCC[C@H]1C(=O)N[C@@H](CO)C(N)=O	–	–	human, ESRD requiring dialysis, plasma	subcutaneous, 5 mg single dose, geometric mean	–	Cmax	347 ng/mL
CC(C)(C)[C@H](NC(=O)C(F)(F)F)C(=O)N1C[C@H]2[C@@H]([C@H]1C(=O)N[C@H](C#N)C[C@@H]1CCNC1=O)C2(C)C	–	–	human, fasted	oral, 500 mg single dose, no ritonavir	–	AUC(0-t)	3750 ng·h/mL
C[C@@H]1Cc2c(Cl)cc(C(=O)N[C@H](Cc3ccccc3)C(=O)O)c(O)c2C(=O)O1	–	–	chicken embryos	in ovo injection, 0.75 µg/egg	baseline: ochratoxin A	hatchability difference	~11%
CC[C@H](C)[C@H](NC(=O)[C@H](CC(C)C)NC(=O)[C@H](Cc1c[nH]c2ccccc12)NC(=O)[C@H](CCC(N)=O)NC(=O)[C@@H](NC(=O)[C@H](Cc1ccccc1)NC(=O)[C@H](C)NC(=O)[C@H](CCCCNC(=O)COCCOCCNC(=O)COCCOCCNC(=O)CC[C@H](NC(=O)CCCCCCCCCCCCCCCCCCC(=O)O)C(=O)O)NC(=O)[C@H](CCC(N)=O)NC(=O)[C@H](C)NC(=O)[C@@H](NC(=O)[C@H](CCCCN)NC(=O)[C@H](CC(=O)O)NC(=O)[C@H](CC(C)C)NC(=O)C(C)(C)NC(=O)[C@@H](NC(=O)[C@H](CO)NC(=O)[C@H](Cc1ccc(O)cc1)NC(=O)[C@H](CC(=O)O)NC(=O)[C@H](CO)NC(=O)[C@@H](NC(=O)[C@H](Cc1ccccc1)NC(=O)[C@@H](NC(=O)CNC(=O)[C@H](CCC(=O)O)NC(=O)C(C)(C)NC(=O)[C@@H](N)Cc1ccc(O)cc1)[C@@H](C)O)[C@@H](C)O)[C@@H](C)CC)[C@@H](C)CC)C(C)C)C(=O)N[C@@H](C)C(=O)NCC(=O)NCC(=O)N1CCC[C@H]1C(=O)N[C@@H](CO)C(=O)N[C@@H](CO)C(=O)NCC(=O)N[C@@H](C)C(=O)N1CCC[C@H]1C(=O)N1CCC[C@H]1C(=O)N1CCC[C@H]1C(=O)N[C@@H](CO)C(N)=O	–	–	healthy subjects, single ascending dose	8.0 mg, day 29	baseline: baseline	diastolic blood pressure change	3.71 mmHg
Cn1cnc(Cn2c(=O)[nH]/c(=N\c3cc4cn(C)nc4cc3Cl)n(Cc3cc(F)c(F)cc3F)c2=O)n1	–	–	human, all renal function groups	oral, 375 mg	–	dry mouth TEAE, Mild severity	3.1%
Nc1ncnc2c([C@@H]3N[C@H](CO)[C@@H](O)[C@H]3O)c[nH]c12	Marburg marburgvirus	virus production	HeLa, Musoke	6.3 µM	–	supernatant virus titre	590000 PFU/mL
CC(=O)c1c(O)c(C)c(O)c(Cc2c(O)c3c(c(C(=O)/C=C/c4ccccc4)c2O)OC(C)(C)C=C3)c1O	Voltage-gated inwardly rectifying potassium channel KCNH2 (KCNH2, Homo sapiens, UniProt Q12809)	ion current, whole-cell patch clamp	HEK293 expressing hERG1	4 µM, at -120 mV	–	fast deactivation component share	68.9 ± 2.6%
CC[C@H](C)[C@H](NC(=O)[C@H](CC(C)C)NC(=O)[C@H](Cc1c[nH]c2ccccc12)NC(=O)[C@H](CCC(N)=O)NC(=O)[C@@H](NC(=O)[C@H](Cc1ccccc1)NC(=O)[C@H](C)NC(=O)[C@H](CCCCNC(=O)COCCOCCNC(=O)COCCOCCNC(=O)CC[C@H](NC(=O)CCCCCCCCCCCCCCCCCCC(=O)O)C(=O)O)NC(=O)[C@H](CCC(N)=O)NC(=O)[C@H](C)NC(=O)[C@@H](NC(=O)[C@H](CCCCN)NC(=O)[C@H](CC(=O)O)NC(=O)[C@H](CC(C)C)NC(=O)C(C)(C)NC(=O)[C@@H](NC(=O)[C@H](CO)NC(=O)[C@H](Cc1ccc(O)cc1)NC(=O)[C@H](CC(=O)O)NC(=O)[C@H](CO)NC(=O)[C@@H](NC(=O)[C@H](Cc1ccccc1)NC(=O)[C@@H](NC(=O)CNC(=O)[C@H](CCC(=O)O)NC(=O)C(C)(C)NC(=O)[C@@H](N)Cc1ccc(O)cc1)[C@@H](C)O)[C@@H](C)O)[C@@H](C)CC)[C@@H](C)CC)C(C)C)C(=O)N[C@@H](C)C(=O)NCC(=O)NCC(=O)N1CCC[C@H]1C(=O)N[C@@H](CO)C(=O)N[C@@H](CO)C(=O)NCC(=O)N[C@@H](C)C(=O)N1CCC[C@H]1C(=O)N1CCC[C@H]1C(=O)N1CCC[C@H]1C(=O)N[C@@H](CO)C(N)=O	–	–	human, plasma	sc, 5.0 mg once weekly, week 7, geometric mean	–	Vz/F	8 L
Cn1cnc(Cn2c(=O)[nH]/c(=N\c3cc4cn(C)nc4cc3Cl)n(Cc3cc(F)c(F)cc3F)c2=O)n1	Cytochrome P450 3A4 (CYP3A4, Homo sapiens, UniProt P08684)	inhibitor	human liver microsomes	30 min preincubation, preincubation with NADPH, added: testosterone 60 µM	–	IC50	81 µM
CNC(=O)[C@@H](NC(=O)[C@H](CC(C)C)[C@H](O)C(=O)NO)C(C)(C)C	human fibrinogen	SDS-PAGE	Daboia russelii	concentration not given, unit not given, added: AP venom	baseline: untreated fibrinogen	remaining fibrinogen γ chain	0.825
COP(=O)(OC)OC=C(Cl)Cl	rat CYP2D	bufuralol 1'-hydroxylation, non-competitive inhibitor	rat Sprague-Dawley, liver microsomes	10 min, pH 7.4, added: bufuralol 4 to 134 µM	–	Ki	> 5000 µM

Repeated from above:
SMILES	target or system	test	system	setting	how to read	measurement	value
CC[C@H](C)[C@H](NC(=O)[C@H](CC(C)C)NC(=O)[C@H](Cc1c[nH]c2ccccc12)NC(=O)[C@H](CCC(N)=O)NC(=O)[C@@H](NC(=O)[C@H](Cc1ccccc1)NC(=O)[C@H](C)NC(=O)[C@H](CCCCNC(=O)COCCOCCNC(=O)COCCOCCNC(=O)CC[C@H](NC(=O)CCCCCCCCCCCCCCCCCCC(=O)O)C(=O)O)NC(=O)[C@H](CCC(N)=O)NC(=O)[C@H](C)NC(=O)[C@@H](NC(=O)[C@H](CCCCN)NC(=O)[C@H](CC(=O)O)NC(=O)[C@H](CC(C)C)NC(=O)C(C)(C)NC(=O)[C@@H](NC(=O)[C@H](CO)NC(=O)[C@H](Cc1ccc(O)cc1)NC(=O)[C@H](CC(=O)O)NC(=O)[C@H](CO)NC(=O)[C@@H](NC(=O)[C@H](Cc1ccccc1)NC(=O)[C@@H](NC(=O)CNC(=O)[C@H](CCC(=O)O)NC(=O)C(C)(C)NC(=O)[C@@H](N)Cc1ccc(O)cc1)[C@@H](C)O)[C@@H](C)O)[C@@H](C)CC)[C@@H](C)CC)C(C)C)C(=O)N[C@@H](C)C(=O)NCC(=O)NCC(=O)N1CCC[C@H]1C(=O)N[C@@H](CO)C(=O)N[C@@H](CO)C(=O)NCC(=O)N[C@@H](C)C(=O)N1CCC[C@H]1C(=O)N1CCC[C@H]1C(=O)N1CCC[C@H]1C(=O)N[C@@H](CO)C(N)=O	–	–	healthy subjects, single ascending dose	8.0 mg, day 29	baseline: baseline	diastolic blood pressure change	3.71 mmHg
